Assay results pooled from the literature.
Every numbered part comes from another study and shows a few of its results, in no order.

Series 1
Target: Sal-like protein 4, full length isoform A (SALL4, Homo sapiens, UniProt Q9UJQ4, residues 1-1053)
UniProt Q9UJQ4, sequence (whole entry, looked up): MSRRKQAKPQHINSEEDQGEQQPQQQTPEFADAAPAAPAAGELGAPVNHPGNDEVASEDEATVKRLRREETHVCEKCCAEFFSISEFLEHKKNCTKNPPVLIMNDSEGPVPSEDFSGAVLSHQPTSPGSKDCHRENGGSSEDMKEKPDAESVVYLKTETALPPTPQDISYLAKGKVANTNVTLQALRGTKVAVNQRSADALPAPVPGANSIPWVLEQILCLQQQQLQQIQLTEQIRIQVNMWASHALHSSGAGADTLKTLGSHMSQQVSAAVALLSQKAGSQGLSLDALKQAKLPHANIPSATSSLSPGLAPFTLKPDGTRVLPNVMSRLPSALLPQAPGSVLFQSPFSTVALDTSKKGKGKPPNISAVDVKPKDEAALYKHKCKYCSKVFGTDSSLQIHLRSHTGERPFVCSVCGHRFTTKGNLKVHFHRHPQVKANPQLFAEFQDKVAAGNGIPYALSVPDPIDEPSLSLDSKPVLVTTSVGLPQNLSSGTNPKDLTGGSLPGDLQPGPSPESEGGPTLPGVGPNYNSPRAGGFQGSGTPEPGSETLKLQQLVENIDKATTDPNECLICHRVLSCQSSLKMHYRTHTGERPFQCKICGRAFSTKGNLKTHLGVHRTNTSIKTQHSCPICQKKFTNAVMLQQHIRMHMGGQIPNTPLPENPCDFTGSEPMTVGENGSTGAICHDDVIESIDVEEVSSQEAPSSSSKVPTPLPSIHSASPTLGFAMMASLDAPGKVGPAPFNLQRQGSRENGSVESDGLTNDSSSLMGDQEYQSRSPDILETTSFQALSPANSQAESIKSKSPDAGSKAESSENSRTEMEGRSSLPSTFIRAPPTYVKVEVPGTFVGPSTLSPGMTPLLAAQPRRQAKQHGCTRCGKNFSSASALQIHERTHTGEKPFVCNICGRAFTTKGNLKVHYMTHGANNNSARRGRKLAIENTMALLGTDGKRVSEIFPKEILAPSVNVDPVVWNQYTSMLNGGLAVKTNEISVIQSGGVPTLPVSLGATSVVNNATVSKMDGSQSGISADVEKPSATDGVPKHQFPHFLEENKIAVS
Technique: universal PBM
Molecule type: double-stranded DNA, one strand shown
Sample: in vitro
Concentration: 600 nM
Setting: 8-mer, flanks averaged, mean of replicates
Reading: higher = stronger binding
Quantity: E-score
Oligonucleotide = CTTCGCGC; result = -0.0858
Oligonucleotide = ACCAATGG; result = -0.101
Oligonucleotide = CATTCCCC; result = -0.181
Oligonucleotide = CCAGATTC; result = -0.184

Series 2
Target: Histone acetyltransferase KAT6A, winged helix 1, GST fusion (KAT6A, Homo sapiens, UniProt Q92794, residues 1-85)
Technique: protein binding microarray
Molecule type: double-stranded DNA, one strand shown
Sample: in vitro
Concentration: not given
Setting: 8-mer, flanks averaged, mean of 2 arrays, mostly near background
Relative to: not given
Reading: higher = stronger binding
Quantity: E-score
Construct (chain): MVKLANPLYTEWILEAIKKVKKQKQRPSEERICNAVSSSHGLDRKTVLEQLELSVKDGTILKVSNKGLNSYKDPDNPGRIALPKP
Oligonucleotide = GGCCCCCA; result = -0.17
Oligonucleotide = AAGTGAGC; result = -0.232
Oligonucleotide = CACAGAGG; result = -0.162

Series 3
Target: PABPC1L2, full length, GST fusion (mouse, UniProt A0ABA7IW68)
Technique: RNAcompete
Molecule type: RNA
Sample: in vitro
Concentration: 20 nM
Setting: 7-mer, probes averaged, single round
Relative to: mean of 7-mers
Reading: higher = stronger binding
Quantity: 7-mer Z-score
Construct (chain): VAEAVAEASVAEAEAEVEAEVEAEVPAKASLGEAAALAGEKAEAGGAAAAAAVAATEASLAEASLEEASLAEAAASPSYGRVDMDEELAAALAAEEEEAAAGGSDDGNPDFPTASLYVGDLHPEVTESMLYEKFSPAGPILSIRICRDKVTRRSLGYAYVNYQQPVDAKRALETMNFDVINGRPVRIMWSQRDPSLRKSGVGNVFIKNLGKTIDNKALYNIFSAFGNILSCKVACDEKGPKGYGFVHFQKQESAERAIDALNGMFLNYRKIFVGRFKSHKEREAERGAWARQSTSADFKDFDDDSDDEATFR
Oligonucleotide = AGAGCGG; result = -0.0319
Oligonucleotide = AGGACAU; result = 0.186
Oligonucleotide = UUGCGUC; result = -0.385

Other studies, line by line
Molecule = PhoQ, residues 284 288 289 292 302 303 SSTMSV; target = PhoP, residues 12 14 15 18 19 SGWQI (Escherichia coli, UniProt P23836); assay = Sort-seq, refers to: YFP reporter; test system = E. coli; setting = PhoQ-PhoP variant library, added: 10 µM Mg2+; scale = relative to: high Mg2+ state, higher = stronger signaling; quantity = fold induction; result = 1.66

Repeated from above (other studies, line by line):
Molecule = PhoQ, residues 284 288 289 292 302 303 SSTMSV; target = PhoP, residues 12 14 15 18 19 SGWQI (Escherichia coli, UniProt P23836); assay = Sort-seq, refers to: YFP reporter; test system = E. coli; setting = PhoQ-PhoP variant library, added: 10 µM Mg2+; scale = relative to: high Mg2+ state, higher = stronger signaling; quantity = fold induction; result = 1.66
